Published values from different studies.
A part holds a random share of what one study measured.

Series 1 — method: protein-binding microarray; form: double-stranded DNA, one strand shown; medium: in vitro; tested at: 2200 nM top; notes: 60-bp whole probe; added: salmon DNA 0.4 mg/ml; reference: random background probes; direction: higher = stronger binding; all sequences stand within: GCCTAGCAC … GTCTTGATTCGCTTGACGCTGCTG
Target: Interferon regulatory factor 7, full length, phosphomimetic (IRF7, Homo sapiens, UniProt Q92985, residues 1-503, S471D/S472D/S475D/S476D/S477D/S483D/S484D/S487D)
Target sequence (chain): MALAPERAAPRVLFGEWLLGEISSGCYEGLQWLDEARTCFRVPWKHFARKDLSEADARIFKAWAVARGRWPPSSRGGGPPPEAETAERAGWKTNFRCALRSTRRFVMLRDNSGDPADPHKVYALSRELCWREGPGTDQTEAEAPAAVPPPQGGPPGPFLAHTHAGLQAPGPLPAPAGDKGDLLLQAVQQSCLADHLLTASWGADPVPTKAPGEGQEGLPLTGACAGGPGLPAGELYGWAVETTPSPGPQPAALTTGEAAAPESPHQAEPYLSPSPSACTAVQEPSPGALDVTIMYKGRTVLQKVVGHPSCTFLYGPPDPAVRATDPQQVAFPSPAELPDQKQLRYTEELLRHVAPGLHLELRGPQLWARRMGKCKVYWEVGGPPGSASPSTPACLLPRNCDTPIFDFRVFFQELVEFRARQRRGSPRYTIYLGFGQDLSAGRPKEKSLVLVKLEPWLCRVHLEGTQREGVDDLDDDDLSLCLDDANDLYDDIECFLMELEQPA
Strand	fitted relative affinity
TCAGCTATACCACTCTTACTGTGCTAG	0.779 z-score
TCAGATTTTTTTTCCTAACTGTGCTAG	0.908 z-score
GACGGTTTCGGGACTGGGTACGTGCTA	3.81 z-score
TTAGGCCTGGACTATCGGTTAGTGCTA	-0.344 z-score
GACGGTCTCAGTATCGAGACGTGCTAG	-0.146 z-score
TAAGATATCAGTTTCGATTAGTGCTAG	5.76 z-score
TCAGCTCTGTTGCCTGGTACTGTGCTA	0.799 z-score
TTAGATTCCAGTTCCGATTAGTGCTAG	2.04 z-score
TCATTTCTCTTTCCTTCACTGTGCTAG	4.71 z-score
TATGGTTTTTTTTTAATTGAGTGCTAG	1.1 z-score
GACGATAGCGGGTTTCGAGACGTGCTA	0.916 z-score
GACGATTTCAGTTTCGGGACGTGCTAG	5.87 z-score
GCATCTCGGAGATCTCGAAGCGTGCTA	0.568 z-score
AACGGTATCCTACTGCTGACGTGCTAG	0.987 z-score
TCATACATCTATGTAGAACTGTGCTAG	0.715 z-score
TCATTTTACTTTCTATCACTGTGCTAG	4.16 z-score

Series 2 — method: RNA Bind-n-Seq; form: RNA; medium: in vitro; tested at: 365 nM; reference: no-protein control; direction: higher = stronger binding
Target: RNA binding protein fox-1 homolog 2, RRM domain, GST-SBP tag (RBFOX2, Homo sapiens, UniProt O43251-10, residues 100-194)
Notes: natural RNA segment, single round, ends assumed
All sequences stand within: GGGAGUUCUACAGUCCGACGAUC … UGGAAUUCUCGGGUGCCAA
Construct (chain): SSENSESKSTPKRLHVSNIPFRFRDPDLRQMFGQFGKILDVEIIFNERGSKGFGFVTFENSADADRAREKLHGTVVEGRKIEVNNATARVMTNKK
Strand	RBNS enrichment (R)
AUGGCCAGAUGGCCUGUAGGAAGAGCUACCAGGGCUUCCAGACCUGUGGAACGAAGAGGAUGGGGAAAAGGCAGAGGGCACUGAGUGUCCCUUUAAAAACUAACCCACUG	0.336
GUAUAUUACGUGAAAUGUGAAGUUAAAACUGAAGCUAAGAGUGUUUGUGGUUGUAAUUGUUUUUUUUUUGAAAUGUUUUUUUUAUUAUGAAAUAAAACGGAUGUUAAUUU	1.44
UGUUCGGAAAACAUAAAGGACCACUCCUGAAGACAGGGAGAUCGCGGAAGUCAUCAAGCACUUGGGCGUUCUGCUCCGAUGCAGCUGUGGCCAGCGGUCAGGCUGCUGAG	0.472
CUUCUCAAUUUCUCAUAGAUUUUACCUUAAACUAAUUAAGGCCAUUCUCUUGAUAAAUUUGUACAUCAGACCGGGUCACCAGCUAUGAUGCAGAACGCCAGAUUUUUGAA	0.327
GACAUAUUCAAAAGGUGGGCUUGUCUAAGGUUCCCACAGAAAUGUAAGUAUGAGCCUACUGUUUUGUUUCCUAGUCCCAUGGACAAGUAGCAUACCAGGGGGCAAGAAGC	0.38
UCAGAUGAGGACCUCCUGGAUAGCUCUUCAGAGGAGCUGGGACUGCGUGUGCGUGGAGCCACAGUACCUCCUACACUCCCUGAGGCUCCGACUUGGGGAAAUAAAUUUCC	0.317
GGUUACCAUCAGAGUGGAUGUACCAUUGAGUUAAAAACAAGAUAGAAAAACUGCCAAGUUGUUUGGCAAGUGAUUGUUCUGAAAUACCUUGCAAGAUACCGAUAUUCAAG	0.389
CAGACAGGGCCUAGCUUUCAUUUGACACACAGACUACAGCCAGAAGCCCAUGGAGCAGGGAUGUCACGUCUUGAAAAGCCUAUUAGAUGUUUUACAAAUUUAAUUUUGCA	1.29
AAGAAAAAGUGACCAUCUUACCUGUCAUUCAGAAUGCAAGCUAACAUCAUCCCUGUAAGCAGAGAGAACCCUAGUCACUAAAGGUGGGAGCCCUUUACCUCUCAUGUUCC	0.476
AUAGCCAACACUAUGACAUAAAAACUUUGUGUUCAAAAUGUACAAUUCACUUUAUACAUUAUUAAUAGUAGAUAAAUUUGUGUAAAAUGUAUCGCUGCUGUCCAGCAUGC	3.76
UUUGAUACAAUAGUCAAAACCAAACUACCUUGACAUUUUUCUAAGACAGCUUAAUGGCUGAUGCUCGUCUUCACAGCCCGUGGCGGGCUUUAACGUAGCUCGAAUCUGGU	0.322
CCUCAAACUCCUCUGUGACCAGUUUUGUCUCCAAGCACAUAACUCAUUCUCUCUAAUCUGAUGUCUCUGAAGAGCCUCACAGAGACAGUGGUAUGGCUGAACCCAUCGGA	0.55

Series 3 — method: protein binding microarray; form: double-stranded DNA, one strand shown; medium: in vitro; tested at: not given; reference: not given; direction: higher = stronger binding
Target: Histone acetyltransferase KAT6A, winged helix 2, GST fusion (KAT6A, Homo sapiens, UniProt Q92794, residues 85-181)
Notes: 8-mer, flanks averaged, mean of 2 arrays, mostly near background
Construct (chain): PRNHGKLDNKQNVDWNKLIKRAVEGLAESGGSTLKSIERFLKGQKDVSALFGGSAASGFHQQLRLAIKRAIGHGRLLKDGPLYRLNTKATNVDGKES
Strand	E-score
ATAAGGAG	-0.222
ATGTTATC	-0.0967
GAGGCATC	0.0728
ATACGACC	-0.141
CAAACGAA	0.0813
CCATCTGA	0.101
AAATTCAT	0.134
CCGCTGAC	0.105
CCAGGTAA	-0.127
CGGATGGA	0.148
GGAGCAAA	0.0762
AGGGTGCG	-0.0929
GAAAAACA	-0.118
AATTATCA	0.149
CTTGACGA	0.0561
ACCGATTG	-0.0156
ATTGCTAA	0.0947
CAGGTCTA	-0.076
ATTTCGGC	0.0975
GCAGTCAC	-0.00301
CCCCCAAC	0.019
ACGAGAGT	-0.0768
AGTCGCCA	-0.0435
ACCCCGCT	0.127
GGGACTGA	-0.0545

Series 4 — method: competition protein-binding microarray; form: double-stranded DNA, one strand shown; medium: in vitro; tested at: 2 µM; added: Cbf1 competitor, 0.05 µM; direction: higher = stronger binding; all sequences stand within: … GTCTTGATTCGCTTGACGCTGCTG
Target: Phosphate system positive regulatory protein PHO4, full length, GST-tagged (PHO4, Saccharomyces cerevisiae, UniProt P07270, residues 1-312)
Notes: whole 60-bp probe, lowest competitor level
Target sequence (chain): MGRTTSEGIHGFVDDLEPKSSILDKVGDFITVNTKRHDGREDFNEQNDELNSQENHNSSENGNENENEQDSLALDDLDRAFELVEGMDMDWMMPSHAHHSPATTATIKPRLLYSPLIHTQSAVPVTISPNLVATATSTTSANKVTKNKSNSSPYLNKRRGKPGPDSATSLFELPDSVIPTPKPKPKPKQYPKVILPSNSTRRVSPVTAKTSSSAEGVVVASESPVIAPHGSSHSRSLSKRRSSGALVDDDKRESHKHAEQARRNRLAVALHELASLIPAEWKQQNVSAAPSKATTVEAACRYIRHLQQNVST
Strand	fluorescence intensity [a.u.]
GAACTAATATTCCGTCACGTCACTTAAGTGCAAGGT	5340
GCAGCTGACAGAAAACATGTGCTTTGACTTGGGGAC	11700
AAAGCGGTAATTTGAGCCGTGGGTGCAGATATCTAT	5980
GTCATCCTCGTCGTTCACGGGTTTAATTTGAATCCT	6810
CGGATGCTGTTACTACACGTGAACCATCCGGAGAGT	14400
CTCCAACATGCTTTGCACGGGGGAGGGACAGTAGCT	9100
ATTACTAAAGCCTCTCATGTGTTCTACGCCCATTGT	6990
CGTTAAAGGGACCAAAACGTGGGTAAGGGATGCCGC	14500
GTCTTGTCTCATTGCGGAGTGGGTGTCCCCACTTCA	4330
CAATGGCTCAGTAACCTCGTGATGGAAAAAGGGAAA	9390
CCTTGAGGAGAACTTCTAGTATATCTACATACCTAA	3310
TTATTTTGGGCCCTCGTTCAAGGGCCATCTCACCCT	3980
CGGGGTTAAGTTTTTCACGTGTGTTGCTTGCAGCAG	13000

Series 5 — method: RNA Bind-n-Seq; form: RNA; medium: in vitro; tested at: not given; reference: input RNA pool; direction: higher = stronger binding
Target: RING finger protein unkempt homolog, zinc fingers 1-6, GST-SBP tag (UNK, Homo sapiens, UniProt Q9C0B0, residues 30-357)
Chain of UniProt Q9C0B0 (30-357, looked up): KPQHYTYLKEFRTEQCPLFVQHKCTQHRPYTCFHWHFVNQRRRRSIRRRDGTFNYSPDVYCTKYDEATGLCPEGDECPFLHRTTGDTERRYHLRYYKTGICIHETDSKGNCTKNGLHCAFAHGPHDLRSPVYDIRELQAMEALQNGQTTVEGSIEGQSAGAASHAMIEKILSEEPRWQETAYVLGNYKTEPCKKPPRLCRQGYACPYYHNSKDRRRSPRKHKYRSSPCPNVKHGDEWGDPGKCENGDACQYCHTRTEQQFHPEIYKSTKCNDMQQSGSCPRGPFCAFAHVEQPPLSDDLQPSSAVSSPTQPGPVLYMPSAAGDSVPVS
Notes: RNA with constant flanks, human and mouse sites, ends assumed
All sequences stand within: GGGAGUUCUACAGUCCGACGAUC … CAACAGAGGAUUGAGCAUCA
Strand	bound/input enrichment [ratio]
GUGGCAAGCAAAAGAAAAGAGCUUUCACAAAAUACAGAUGAGUCUGGAUUAAAUGAUGAAGCCAUCGCCAAGCAAUUACAGCUUGAUGAAGAUGCGGAGCUGGAGAGGCAGUUGCAUGAA	0.262
GUUCAUACUGGCGAGAAACCGUAUCAGUGUAAAGAAUGUGAAAAGGCCUUUACACGUGAGUCUCAACUAAUGCGACAUCAGAGAAUUCAUAUCCGUGGCAAAUCUUUGGACUGUAAGGAA	0.322
GGUCAUUCGUAUGUCACAUGUUUUAAACUGGGGUCUCUGUGUGUAUUUGUGUGUGUGUUCUACCUUUCUACCAUAUGUCAUCAGUUUAAUGGUAACUUUAUUUAUUUAAAAACAAAGAAA	0.561
AGCCACUUCAACCACUGAUGGUCAUUAAAACUCCUUUUUCACUAACUGAACCAGCAGGUCUUAGGGCUGGAGACAGCAUUUGAUCAUAGUGGACGUUGUUACAAAGACACACUGAGUCUA	0.221
GGCAUCGCGGGCUGUGGAACCCUACUAAUAUUGGAUCCAGAUGAAGCUGGGCUAAGGCUUUUUAGAAGCUUUGACUGGAAUGAUGGUUUGUUUGAUGUGACUUGGAGUGAGAACAACGAA	0.11
UUUUUAAAACCUGAUGAUAUUCAAUACUUUGAUAAACUAUUGGUUGAUGUUGAUGAAUCAACACUUAGUCCAGAAGAGCAAAAAGAGAGAAAAAUAAUGAAGUUGCUUUUAAAAAUUAAG	0.341
UAUUACUUCUUUUUUUAAAAAAACUACACUUGGGCUCCUUUUUUGUGCUCGACUUUUCCACCUUUUUCCCUCCUUCCUGCGCUGCUGCUUUUUUGAUCUCUUCGACUAAAAAUUUUUUAU	2.82

A few entries again (series 1):
Strand	fitted relative affinity
TTAGGCCTGGACTATCGGTTAGTGCTA	-0.344 z-score
GACGGTCTCAGTATCGAGACGTGCTAG	-0.146 z-score
TAAGATATCAGTTTCGATTAGTGCTAG	5.76 z-score
TCAGCTCTGTTGCCTGGTACTGTGCTA	0.799 z-score
TTAGATTCCAGTTCCGATTAGTGCTAG	2.04 z-score
TCATTTCTCTTTCCTTCACTGTGCTAG	4.71 z-score
TATGGTTTTTTTTTAATTGAGTGCTAG	1.1 z-score
GACGATAGCGGGTTTCGAGACGTGCTA	0.916 z-score
GACGATTTCAGTTTCGGGACGTGCTAG	5.87 z-score
GCATCTCGGAGATCTCGAAGCGTGCTA	0.568 z-score
AACGGTATCCTACTGCTGACGTGCTAG	0.987 z-score
